# Experimental data of several laboratories.
# Numbered parts are unrelated; each lists some results of a single study.

# Sample 1
# Target: Ras GTPase-activating protein-binding protein 1, C-terminal RGG region (G3BP1, Homo sapiens, UniProt Q13283)
# Sequence of UniProt Q13283 (whole entry, looked up): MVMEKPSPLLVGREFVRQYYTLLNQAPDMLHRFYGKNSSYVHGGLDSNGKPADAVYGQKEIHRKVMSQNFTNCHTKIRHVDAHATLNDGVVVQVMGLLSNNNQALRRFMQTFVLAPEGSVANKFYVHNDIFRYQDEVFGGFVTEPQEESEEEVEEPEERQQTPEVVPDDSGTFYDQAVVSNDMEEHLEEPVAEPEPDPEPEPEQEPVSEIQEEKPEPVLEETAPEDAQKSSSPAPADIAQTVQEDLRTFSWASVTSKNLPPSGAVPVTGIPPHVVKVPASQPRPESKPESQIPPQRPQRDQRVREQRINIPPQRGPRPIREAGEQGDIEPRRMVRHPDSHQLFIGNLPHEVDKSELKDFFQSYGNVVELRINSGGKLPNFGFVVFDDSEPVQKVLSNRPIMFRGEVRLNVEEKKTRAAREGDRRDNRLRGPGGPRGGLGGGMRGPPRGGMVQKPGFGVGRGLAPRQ
# Method: RNA Bind-n-Seq
# Form: RNA
# Medium: in vitro
# Tested at: 1 µM
# Setting: whole 134-nt RNA, ends assumed
# Together with: 150 mM KCl
# Reference: input library
# Direction: higher = stronger binding
Strand,log2 enrichment
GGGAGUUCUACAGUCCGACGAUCAGUCCUGUGCUACACAUCGUAUGUACCGAAUCGGGGUUUGGGGAAAAAGGGGUGGGGAAAGUAUUAUGUUACGCCGUUCGGAUCUGCACUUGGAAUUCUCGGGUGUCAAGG,2.65
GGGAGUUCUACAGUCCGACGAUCUCCUGUGCUACACAUCGUAUGUACCGAAUCAAAUUUUUAAACCCCCCCAAAUUUUUAAAAAAGUAUUAUGUUACGCCGUUCGGAUCUGCAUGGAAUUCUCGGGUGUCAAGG,-0.0174
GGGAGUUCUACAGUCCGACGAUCCCUGUGCUACACAUCGUAUGUACCGAAUCGGGUUUUUUUGGGUUUUUGGGUUUUUUUGGGAAAGUAUUAUGUUACGCCGUUCGGAUCUGCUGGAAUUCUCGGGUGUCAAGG,-1.47
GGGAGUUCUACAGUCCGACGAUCCUCAAGUCCUGUGCUACACAUCGUAUGUACCGAAUCGGGAAGGGAAGGGAAGGGAAAGUAUUAUGUUACGCCGUUCGGAUCUGCACUUCCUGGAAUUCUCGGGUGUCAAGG,2.95
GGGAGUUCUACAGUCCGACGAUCUGGCCCUGGUGGCAUGCGGGGAGGAAGAGGUGGCCUCAUGGAUCGUGGUGGUCCCGGUGGAAUGUACAGAGGUGGCCGUGGUGGAGACAGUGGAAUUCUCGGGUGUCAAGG,2.8
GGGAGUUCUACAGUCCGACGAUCACCAUGCAGGUGGGCAGCUUUGGGAAGUGGGGCAAGGGGGGGAUAGGGAGGGGGGUAACACUUUGGGAACAGGUGGUCCCAGGUCGUUUCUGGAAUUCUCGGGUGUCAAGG,-1.42
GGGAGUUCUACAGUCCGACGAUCCUGUGCUACACAUCGUAUGUACCGAAUCGGGUUUUUUUGGGUUUUUUUGGGGUUUUUUUGGGAAAGUAUUAUGUUACGCCGUUCGGAUCUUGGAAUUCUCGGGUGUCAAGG,-1
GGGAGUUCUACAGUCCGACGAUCUGGGAGGUGGAUUUUGUUUAAUUUUUUAGCUCAUUUCCAGGGGUGGGAAUUUUUUUUUAAUAUGUGUCAUGAAUAAAGUUGUUUUUGAAAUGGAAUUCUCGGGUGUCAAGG,1.99
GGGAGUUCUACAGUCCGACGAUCCUGAAGAGUCUGAGGAUGCCCAAUCACAGAGCCAAGCAGAUGAAGAGGAGGAAGAUGAUGAUUUUGGGGUGGAGUACUUGCUUGCCAGGGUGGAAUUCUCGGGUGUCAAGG,-0.812

# Sample 2
# Target: RNA binding protein fox-1 homolog 2, RRM domain, GST-SBP tag (RBFOX2, Homo sapiens, UniProt O43251-10, residues 100-194)
# Method: RNA Bind-n-Seq
# Form: RNA
# Medium: in vitro
# Tested at: 365 nM
# Setting: natural RNA segment, single round, ends assumed
# Reference: no-protein control
# Direction: higher = stronger binding
# Target sequence (chain): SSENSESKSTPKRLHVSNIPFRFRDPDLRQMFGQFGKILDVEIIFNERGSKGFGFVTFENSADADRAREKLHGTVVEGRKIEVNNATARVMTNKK
Strand,RBNS enrichment (R)
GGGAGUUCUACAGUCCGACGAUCACCUCUGUCAUUCAGGCAUUGGGGUACAUCCUGAUAAGUCGUGUCAGAACUGCCAAUUUCAGGACUGAGAUGUGUUUUUAAAAAACAAAUCCUUAUAAACUCCACUUUGUUGGAAUUCUCGGGUGCCAA,0.369
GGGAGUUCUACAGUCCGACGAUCCCGCCAAAUGUCUACACAGUAUACACAGGACAUCGUUGCUGCCGCCGUGACUGGUUUUCUGUCCCCAAGAACGUGACGUUCGUGAUGUCCUGCCCGCCGGGAGUCUUUCCUGGAAUUCUCGGGUGCCAA,0.419
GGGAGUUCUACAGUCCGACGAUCUUGCCUACACUUUCUAUGAAUAACAAGUCAUUUCUGGUUUACACUGUCUUUUUAGAGGAAAAGGACUCUGUAGAACAGAUAUUAUAUUUAUACUUUGUUCCUCCUGCCCAUGGAAUUCUCGGGUGCCAA,1.14
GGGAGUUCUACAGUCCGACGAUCACGGCAUGCAGAAGGCUUUAUUUUAAAGUCAUUCCAUCAGAGGUGUUCUCAGAAUUAGACCCCACCUGUACUGUGUUCUAACACUGAGGGUGGUGGCACCUGAUUCAGAGUGGAAUUCUCGGGUGCCAA,0.265
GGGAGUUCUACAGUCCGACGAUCGACAGCAGGGGAGGAGGAAGAGCUGUGGUUUGUAACUUGUUCAACUCAGGCAAUAAGCGAUUUUAGCUUUAUUUAAAGUCUUCUGUCCAGCUUUAAGCACUUUGUAAGACUGGAAUUCUCGGGUGCCAA,0.711
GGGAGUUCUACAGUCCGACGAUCGCUCACCAAUGCCACAUUUGUUCAUUCUGUUCAACCUGUUUUGACCUCCCAGGCAUCUGAACAGGAUGACAUCAUCUUAUUAUAUCUUACUUUACACAUACGUGUAUGUAUGGAAUUCUCGGGUGCCAA,0.667
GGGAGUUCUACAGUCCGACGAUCUUUACUAGGCAAAUACACAUACUAUCUCACAUAGAUGAUUAUGAAACUGAAUGAAAACCUGUCAUGCGGGAUUAUUUUUGAAAAGCCUCCAUUUGUAUACAUUUGCCCAAUGGAAUUCUCGGGUGCCAA,0.889
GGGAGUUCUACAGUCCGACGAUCGUAGAAAAAUCUUCCUGGCACUUGGUGUUUCUAUGUUAUUGAAAAAUGAUGUUCCAGAAAGAUUACUUUUUCUUUUAUUUUUACUGCCAUUGUUGAUGUGUUGUGGGACAUGGAAUUCUCGGGUGCCAA,0.581
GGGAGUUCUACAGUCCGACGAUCUAGCCUUGUGCCCAUUAGGUAACUGAACAAUGAUUCAGCUCUUAGAAUACCUAGGAAGACAGCAAGCAGGGUGACACACGGCUGUGAUCUAAGCAUUCAGAAGACAGAGGUGGAAUUCUCGGGUGCCAA,1.25
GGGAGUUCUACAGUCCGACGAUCAGAGGGGUAGGAUGUACAGGGGUAGUUUGUUUUAGAACCAGCCGUAUUUUACAUGAAGCUGUAUAAUUAAUUGUCAUUAUUUUUGUUAGCAAAGAUUAAAUGUGUCAUUGUGGAAUUCUCGGGUGCCAA,0.614

# Sample 3
# Target: Interferon regulatory factor 5, full length, phosphomimetic (IRF5, Homo sapiens, UniProt Q13568-2, residues 1-514, S451D/S453D/S456D/S462D)
# Method: protein-binding microarray
# Form: double-stranded DNA, one strand shown
# Medium: in vitro
# Tested at: 940 nM top
# Setting: 60-bp whole probe
# Together with: salmon DNA 0.4 mg/ml
# Reference: random background probes
# Direction: higher = stronger binding
# Constant ends, left off below: GCCTAGCAC … GTCTTGATTCGCTTGACGCTGCTG
Strand,fitted relative affinity [z-score]
TTAGGTTTCGGACTGGGTTTGTGCTAG,7.82
TTAGTTATCGGGACTGGGTTAGTGCTA,0.401
TCATATATATTTATGTAACTGTGCTAG,0.42
TTAGATATGAGTCTCGATTAGTGCTAG,2.39
TTAGATCTCAGAGTGGATTAGTGCTAG,-0.203
TTCGATCTCAGTCTCGATTAGTGCTAG,3.23
GACGGTCTCGGTTTCGGGACGTGCTAG,6.36
CTTTAACTCATTTTCGTTTTGTGCTAG,1.55

# Single results of other studies
Molecule,target,test,system,conditions,how to read,measurement,result
"PhoQ, residues 284 288 289 292 302 303 NLSRDF","PhoP, residues 12 14 15 18 19 NQFFI (Escherichia coli, UniProt P23836)","Sort-seq, measured: YFP reporter",E. coli,"PhoQ-PhoP variant library, together with: 10 µM Mg2+","reference: high Mg2+ state, higher = stronger signaling",fold induction,19.4
